Measured values of several laboratories.
Several values in a cell are separate wells, animals, samples, runs or records. Numbers after ± are the reported error.
MAPK9: Mitogen-activated protein kinase 9 (MAPK9, Homo sapiens, UniProt P45984)
USP14: Ubiquitin carboxyl-terminal hydrolase 14 (USP14, Homo sapiens, UniProt P54578)
Gria2/Glutamate receptor 3: Gria2/Glutamate receptor 3 (Rattus norvegicus, UniProt P19491+P19492)
PPO3: PPO3 (Agaricus bisporus, UniProt C7FF04)
SLC6A9: Sodium- and chloride-dependent glycine transporter 1 (SLC6A9, Homo sapiens, UniProt P48067)

For Fc1ccc(Nc2nc(NC3CCCCC3)c3cc(C(F)(F)F)ccc3n2)cc1F, the maximal inhibition was -5.4% (ADRB2 (Homo sapiens, UniProt P07550, V126A); β-arrestin2 recruitment, antagonist, BRET; mutant V126A; reference: isoprenaline maximal response).
The cAMP luminescence of CC(C)Oc1cc(Cl)ccc1CNc1cc(-c2ccccc2)nc2ncnn12 is reported as 21000 a.u. and 15700 a.u. and 17600 a.u. and 18900 a.u. (GPR3 (Homo sapiens, UniProt P46089, I200W); cAMP GloSensor; human cells; 30 µM; higher is more cAMP).
COC(=O)[C@@]1(C)C=C(C(=O)Nc2cccc(C(=O)Nc3ccc(Nc4nccc(-c5cccnc5)n4)c(C)c3)c2)C(=O)CC1 has a remaining activity of 0.691 (MAPK9; enzyme activity, inhibitor; 0.06097 µM, unit not given; reference: vehicle).
N#CN1CC[C@H](C(=O)Nc2nc3c(s2)CN(C(=O)Cn2cc(CNC(=O)CCCC[C@@H]4SC[C@@H]5NC(=O)N[C@@H]54)nn2)CC3)C1 has an iBAQ abundance of 2.5e+07 and 1.36e+07 and 6.62e+06 (UCHL3 (Homo sapiens, UniProt P15374); probe binding, affinity probe, neutravidin pull-down LC-MS/MS; HEK293T, cell lysate; 5 µM, 1 h, single replicate, unit not given; higher = more pulled down).
C[Si](C)(C)C[C@H](CN)CC(=O)O has an inhibition of -7% (SIGMAR1 (Homo sapiens, UniProt Q99720); ligand displacement, radioligand; 250 µM).
For CC1=NN(C(C)(C)C)C(=O)C1, the inhibition was 83% (USP14; enzyme activity, inhibitor; 17 µM).
Under “deactivation time constant”, COC(=O)Cc1cc2c(cc1C(=O)c1ccccc1Cl)OCO2 is recorded as 3.4 ± 0.2 ms (Gria2/Glutamate receptor 3; glutamate-evoked current, whole-cell patch clamp; HEK-293T; concentration not given, weighted tau, 1 ms pulse, together with: glutamate).
For Cc1ccc(-c2cc(CN3c4ccccc4C=Cc4ccccc43)on2)cc1, the apparent Km was 4.99 mM (PPO3; enzyme activity, inhibitor; concentration not given).
Nc1ncc2c(n1)-c1c([nH]c3ccc(C4=CCOCC4)cc13)CCC2 has a remaining binding of 100% (Tyrosine-protein kinase ABL1, phosphorylated (ABL1, Homo sapiens, UniProt P00519, F317I); binding, competition with immobilised ligand; 1 µM).
The remaining activity of C#CCOC(=O)[C@@]1(C)C=C(C(=O)Nc2cccc(C(=O)Nc3ccc(C)c(Nc4nccc(-c5cccnc5)n4)c3)c2)C(=O)CC1 is reported as 0.969 (MAPK9; enzyme activity, inhibitor; 0.006774 µM, unit not given; reference: vehicle).
For Cc1cc(=O)oc2cc(NC(=O)CCCCCCC(=O)NO)ccc12, the binding stoichiometry was 0.9 (HDAC8 (Homo sapiens, UniProt Q9BY41); ITC; Tris-HCl buffer; concentration not given, 293 K).
CC[C@H](C)[C@@H](C(=O)N[C@@H](CC(C)C)C(=O)N[C@@H](CO)C(=O)N[C@@H](CO)C(=O)N[C@H](C(=O)N[C@@H](CC(N)=O)C(=O)N[C@H](C(=O)NCC(=O)N[C@@H](CO)C(=O)N[C@@H](CC(N)=O)C(=O)N[C@H](C(=O)N1C[C@H](O)C[C@H]1C(N)=O)[C@@H](C)O)C(C)C)[C@@H](C)O)N(C)C(=O)[C@H](C)NC(=O)CN(C)C(=O)[C@H](Cc1ccccc1)NC(=O)[C@H](CC(N)=O)NC(=O)[C@H](CC(N)=O)NC(=O)[C@H](CO)NC(=O)[C@H](CO)NC(=O)[C@H](CCCNC(=N)N)NC(=O)[C@H](Cc1c[nH]cn1)NC(=O)[C@H](CC(C)C)NC(=O)[C@H](Cc1ccccc1)NC(=O)[C@H](CCC(=O)O)NC(=O)[C@H](C)NC(=O)[C@H](CC(C)C)NC(=O)[C@H](CCCNC(=N)N)NC(=O)[C@H](CCC(N)=O)NC(=O)[C@@H](NC(=O)[C@H](C)NC(=O)[C@@H]1CSSC[C@H](NC(=O)[C@H](CCCNC(=N)N)NC(=O)CC[C@H](NC(=O)CCCCCCCCCCCCCCCCCCC(=O)O)C(=O)O)C(=O)N[C@@H](CC(N)=O)C(=O)N[C@@H]([C@@H](C)O)C(=O)N[C@@H](C)C(=O)N[C@@H]([C@@H](C)O)C(=O)N1)[C@@H](C)O has a potency increase of ~7 fold (Calcitonin receptor (CALCR, Homo sapiens, UniProt P30988); cAMP accumulation, agonist; COS-7 expressing CTR; reference: over native Tyr37 analogue).
For OC[C@H]1O[C@@H](Oc2cc3c(O)cc(O)cc3[o+]c2-c2cc(O)c(O)c(O)c2)[C@H](O)[C@@H](O)[C@H]1O, “number of binding sites” read 1.26 (PPO3; fluorescence quenching; concentration not given, 318 K).
For c1ccc(OC[C@H]2CN(CCN3CCc4ccccc43)CCO2)nc1, the Hill slope was 1.5 ± 0.51 (HTR2B (Homo sapiens, UniProt P41595); calcium mobilization, FLIPR).
With COc1ccc(C2(O)CC(C(=O)O)N(CCOC(c3ccc(OC)cc3)(c3ccc(OC)cc3)c3ccc(OC)cc3)C2)cc1 (stereo not shown) the remaining signal was 42% (SLC6A9; cell-free assay; 10 µM).
With CSc1nnc2c(n1)OC(C(=O)c1ccccc1)Nc1ccccc1-2 (stereo not shown) the inhibition was 7% (USP14; enzyme activity, inhibitor; 17 µM).
For Cc1ccc(NC(=O)NC(C)(C)c2cccc(NC3=CC(=O)N(C4CCC(=O)NC4=O)C3=O)c2)cc1Cl (stereo not shown), “log2 fold change” read -1.31 (CRBN/Zinc finger protein Aiolos (Homo sapiens, UniProt Q96SW2+Q9UKT9); degrader, quantitative proteomics, item: protein abundance; Jurkat; 1 µM, 4 h; reference: DMSO).
For Cc1cc(=O)oc2nc(S)nc(O)c12, the inhibition was 16% (USP14; enzyme activity, inhibitor; 17 µM).
CCCC[C@H](NC(=O)[C@H](CCC(N)=O)NC(=O)[C@H](CCC(=O)O)NC(=O)[C@@H]1CCCN1C(=O)[C@@H](NC(=O)[C@H](C)NC(=O)[C@H](CC(N)=O)NC(=O)[C@H](CC(=O)O)NC(=O)CNC(=O)[C@@H]1CCCN1C(=O)[C@H](Cc1ccc(O)cc1)NC(=O)[C@@H](NC(=O)[C@@H]1CCCN1C(=O)[C@H](CCC(=O)O)NC(=O)[C@H](CC(C)C)NC(=O)[C@@H]1CCCN1C(=O)[C@H](C)N)C(C)C)[C@@H](C)O)C(=O)N[C@@H](C)C(=O)N[C@@H](CCC(N)=O)C(=O)N[C@@H](Cc1ccc(O)cc1)C(=O)N[C@@H](C)C(=O)N[C@@H](CCCCNC(=O)c1ccc2c(c1)C(=O)OC21c2ccc(N(C)C)cc2Oc2cc(N(C)C)ccc21)C(=O)N[C@@H](CC(=O)O)C(=O)N[C@@H](CC(C)C)C(=O)N[C@@H](CCCNC(=N)N)C(=O)N[C@@H](CCCNC(=N)N)C(=O)N[C@@H](Cc1ccc(O)cc1)C(=O)N[C@H](C(=O)N[C@@H](CC(N)=O)C(=O)N[C@@H](CCCC)C(=O)N[C@@H](CC(C)C)C(=O)N[C@H](C(=O)N[C@@H](CCCNC(=N)N)C(=O)N1CCC[C@H]1C(=O)N[C@@H](CCCNC(=N)N)C(=O)N[C@@H](Cc1ccc(O)cc1)C(N)=O)[C@@H](C)O)[C@@H](C)CC gave a BRETmax of 0.051 ± 0.0016 (NPY4R (Homo sapiens, UniProt P50391, L192A); NanoBRET binding; Nluc-tagged receptor L192A, unit not given; net BRET ratio).
Under “ternary complex formation”, C#CCN1CCN(c2nc(N3CCC(CCOc4cc(-c5scnc5C)ccc4CNC(=O)[C@@H]4C[C@@H](O)CN4C(=O)[C@@H](NC(=O)C4(F)CC4)C(C)(C)C)CC3)nc(N3CCN(C(=O)C4CC4)C3)n2)CC1=O is recorded as 0% (VHL/BRD9, with Elongin B/C (Homo sapiens, UniProt P40337+Q9H8M2); native mass spectrometry; 5 µM, together with: BRD9 and VCB at 5 µM; reference: unbound BRD9).
With CN(C)c1c(C(C#N)=C(C#N)C#N)c2ccccc2n1C the inhibition was 23% (USP14; enzyme activity, inhibitor; 17 µM).
With CC(C)[C@@H]1NC(=O)[C@H](Cc2ccccc2)NC(=O)CSC[C@@H](C(N)=O)NC(=O)[C@H](CCC(=O)O)NC(=O)[C@H](CO)NC(=O)[C@H](Cc2c[nH]c3cccc(Cl)c23)NC(=O)[C@H](C2CCCCC2)NC(=O)[C@H](C(C)C)NC(=O)[C@H](Cc2ccc(O)cc2)NC(=O)[C@H](CC(=O)O)NC(=O)[C@H](Cc2c[nH]c3ccccc23)NC(=O)[C@H](Cc2ccc(N)nc2)NC(=O)[C@H](Cc2c[nH]c3ccc(Cl)cc23)NC(=O)[C@H](CCC(=O)O)NC1=O the remaining activity was 27.2% (Interleukin-1 receptor-like 2 (IL1RL2, Homo sapiens, UniProt Q9HB29); reporter gene (SEAP), inhibitor, HEK-Blue IL-36R reporter; HEK-Blue IL-36R cells; 100 µM, 6 h, together with: IL-36γ 30 ng/mL).
The fibril diameter of CCCCCCCCCCCCCCCC(=O)OCC(CSC[C@H](N)C(=O)N[C@@H](CO)C(=O)N[C@@H](CCCCN)C(=O)N[C@@H](CCCCN)C(=O)N[C@@H](CCCCN)C(=O)N[C@@H](CCCCN)C(=O)NCCCCCC(=O)N[C@@H](CCCCN)C(=O)N[C@@H](CC(C)C)C(=O)N[C@H](C(=O)N[C@@H](Cc1ccccc1)C(=O)N[C@@H](Cc1ccccc1)C(=O)N[C@@H](Cc1ccc2ccccc2c1)C(=O)O)C(C)C)OC(=O)CCCCCCCCCCCCCCC (stereo partly shown) is reported as 9.71 nm (Amyloid-beta precursor protein, fibrillar amyloid-beta (APP, Homo sapiens, UniProt P05067); TEM; 2.0 eq, 28 h, fibril 2, together with: APP 20 µM).
For Cc1ncc2[nH]c(=O)n(-c3cnc(Oc4cccc5c4C(C)(C)CO5)c(Cl)c3C)c2n1, “deactivation time constant τ2” read “no effect” (KCNC1 (Homo sapiens, UniProt P48547); potassium current, manual patch clamp; 1 µM).
For CCCCCCCO[C@H]1CO[C@H](CO)[C@@H](O)[C@H](O)[C@@H]1O, the -TΔS was 2.82 kcal/mol (Type 1 fimbrin D-mannose specific adhesin, lectin domain (fimH, Escherichia coli K-12, UniProt P08191); binding, isothermal titration calorimetry; 25 °C, global fit of two titrations).
O=C(O)Cc1cc2c(cc1C(=O)c1ccccc1Br)OCO2: “deactivation time constant” 5.5 ± 0.3 ms (Gria2/Glutamate receptor 3; whole-cell patch clamp; HEK-293T; concentration not given, together with: glutamate).
[N-]=[N+]=N[C@]1(COP(=O)(O)OP(=O)(O)OP(=O)(O)O)O[C@@H](n2ccc(N)nc2=O)[C@@H](F)[C@@H]1O gave a Vmax of 0.29 product fraction (POLG (Homo sapiens, UniProt P54098); single-nucleotide incorporation, substrate).
O=C1c2ccccc2C2(O)NC(=S)NC12O (stereo not shown) has an inhibition of 30% (USP14; enzyme activity, inhibitor; 17 µM).
COC(=O)CN1CCCc2cc3cc(C(=O)NC(Cc4cccc(Cl)c4)C(=O)NCC=CS(=O)(=O)c4ccccc4)c(=O)oc3cc21 (stereo not shown) gave a kinact/Ki of 671 M⁻¹ s⁻¹ (Cathepsin S (CTSS, Homo sapiens, UniProt P25774); inhibitor; together with: Z-Phe-Arg-AMC).
For O=C(O)Cc1cc2c(cc1C(=O)c1cccc(I)c1)OCO2, the current amplitude was 152 ± 15 pA (Gria2/Glutamate receptor 3; glutamate-evoked current, whole-cell patch clamp; HEK-293T; concentration not given).
CCCCCC(O)/C=C/C=O (stereo not shown): “isoTOP-ABPP competition ratio” 2.7 (Outer kinetochore KNL1 complex subunit ZWINT (ZWINT, Homo sapiens, UniProt O95229); competitive isoTOP-ABPP, item: ZWINT cysteine peptide; Ramos soluble proteome; 100 µM, together with: iodoacetamide probe; reference: DMSO over compound-treated, higher = stronger cysteine blockade).
Under “melting temperature shift”, C=CC(=O)N1CCCC(n2c(=O)c3ncccc3n(Cc3ccc(Oc4ccccc4)cc3)c2=O)C1 (stereo not shown) is recorded as -4.17 (USP14; thermal proteome profiling; 10 µM, destabilized proteins, unit not given; reference: vehicle).
For CCOC(=O)C1CCCN(CCCCO)C1 (stereo not shown), the remaining signal was 90.5% (SLC6A9; cell-free assay; 1 µM).
CCCCCCCCCCCCC/C=C/C=O: “isoTOP-ABPP competition ratio” 1 (Ketosamine-3-kinase, C24 (FN3KRP, Homo sapiens, UniProt Q9HA64); competitive isoTOP-ABPP; Ramos soluble proteome; 100 µM, 60 min, together with: iodoacetamide probe; reference: DMSO over compound-treated, higher = stronger cysteine blockade).

Excerpt of the above:
COC(=O)CN1CCCc2cc3cc(C(=O)NC(Cc4cccc(Cl)c4)C(=O)NCC=CS(=O)(=O)c4ccccc4)c(=O)oc3cc21 (stereo not shown) gave a kinact/Ki of 671 M⁻¹ s⁻¹ (Cathepsin S (CTSS, Homo sapiens, UniProt P25774); inhibitor; together with: Z-Phe-Arg-AMC).
For O=C(O)Cc1cc2c(cc1C(=O)c1cccc(I)c1)OCO2, the current amplitude was 152 ± 15 pA (Gria2/Glutamate receptor 3; glutamate-evoked current, whole-cell patch clamp; HEK-293T; concentration not given).
CCCCCC(O)/C=C/C=O (stereo not shown): “isoTOP-ABPP competition ratio” 2.7 (Outer kinetochore KNL1 complex subunit ZWINT (ZWINT, Homo sapiens, UniProt O95229); competitive isoTOP-ABPP, item: ZWINT cysteine peptide; Ramos soluble proteome; 100 µM, together with: iodoacetamide probe; reference: DMSO over compound-treated, higher = stronger cysteine blockade).
Under “melting temperature shift”, C=CC(=O)N1CCCC(n2c(=O)c3ncccc3n(Cc3ccc(Oc4ccccc4)cc3)c2=O)C1 (stereo not shown) is recorded as -4.17 (USP14; thermal proteome profiling; 10 µM, destabilized proteins, unit not given; reference: vehicle).
For CCOC(=O)C1CCCN(CCCCO)C1 (stereo not shown), the remaining signal was 90.5% (SLC6A9; cell-free assay; 1 µM).
